Assay results gathered from unrelated publications.
Protocols differ between the studies behind these lines. “And” joins repeats or separate records; there may be more than shown. ± marks the error that the study gave.

COc1cc2c(Nc3ccc(Cl)c(Cl)c3F)ncnc2cc1OC[C@@H]1C[C@@H]2CN(C)C[C@@H]2C1 — brain concentration (FVB Mdr1a/b(-/-) Bcrp1(-/-) mouse; oral, 70 mg/kg, 2 h): 10000 ng/g
Cc1coc([C@H]2C[C@H]3[C@@H](CF)SC(N)=N[C@@]3(c3ccc(F)cc3F)CO2)n1 — brain concentration (male 129/SVE mouse, brain; subcutaneous, 80 mg/kg, 7 h): 0.036 µM
Cn1ncnc1[C@H]1c2n[nH]c(=O)c3cc(F)cc(c23)N[C@@H]1c1ccc(F)cc1 — brain concentration (FVB mouse Mdr1a/b-/-, brain; oral, 0.15 mg/kg, 2 h, single dose): 17.2 ± 2.1 ng/g
CC(C)[C@@H](CS(=O)(=O)C(C)C)N1C(=O)[C@@](C)(CC(=O)O)C[C@H](c2cccc(Cl)c2)[C@H]1c1ccc(Cl)cc1 — brain distribution advantage (FVB mouse, Abcb1a/b and Abcg2 knockout, brain; intravenous, 20 mg/kg, unit not given; baseline: knockout Kp over wild-type Kp): 40.5
O=S(=O)(c1ccc(-c2ccc3nccc(Nc4ccncn4)c3c2)cc1)N1CCOCC1 — brain concentration (female BALB/c mouse, brain; intraperitoneal, 10 mg/kg, 0.25 h): 185 ng/g and 150 ng/g
Cc1cc([C@H]2C[C@H]3[C@@H](C)SC(N)=N[C@@]3(c3ccc(F)cc3F)CO2)on1 — brain concentration (male 129/SVE mouse, brain; subcutaneous, 50 mg/kg, 3 h): 6.62 µM
CN1C(=O)c2ccccc2[S@+]([O-])c2ccc(C(=O)NCCc3cccs3)cc21 — brain concentration (C57BL/6 mouse, male, brain; intraperitoneal, 30 mg/kg, single dose, 4 h, quantification limit 1 ng/mL): not detected
CCOC(=O)c1c(NC(=O)CNC(C)C)sc2c1CCCCC2 — brain AUC(0-3 h) (mouse, brain; intraperitoneal, 100 mg/kg): 21200 ng·h/g

Some of these lines once more:
Cc1cc([C@H]2C[C@H]3[C@@H](C)SC(N)=N[C@@]3(c3ccc(F)cc3F)CO2)on1 — brain concentration (male 129/SVE mouse, brain; subcutaneous, 50 mg/kg, 3 h): 6.62 µM
